Published values from different studies.
Every numbered part comes from another study and shows a few of its results, in no order. Positions count from the first letter of the parent shown.

Block 1
Target: Sal-like protein 4, full length isoform B (SALL4, Homo sapiens, UniProt Q9UJQ4-2, residues 1-616)
Method: universal PBM
Molecule type: double-stranded DNA, one strand shown
Matrix: in vitro
Concentration: not given
Setting: 8-mer, flanks averaged, mean of replicates
Direction: higher = stronger binding
Target sequence (chain): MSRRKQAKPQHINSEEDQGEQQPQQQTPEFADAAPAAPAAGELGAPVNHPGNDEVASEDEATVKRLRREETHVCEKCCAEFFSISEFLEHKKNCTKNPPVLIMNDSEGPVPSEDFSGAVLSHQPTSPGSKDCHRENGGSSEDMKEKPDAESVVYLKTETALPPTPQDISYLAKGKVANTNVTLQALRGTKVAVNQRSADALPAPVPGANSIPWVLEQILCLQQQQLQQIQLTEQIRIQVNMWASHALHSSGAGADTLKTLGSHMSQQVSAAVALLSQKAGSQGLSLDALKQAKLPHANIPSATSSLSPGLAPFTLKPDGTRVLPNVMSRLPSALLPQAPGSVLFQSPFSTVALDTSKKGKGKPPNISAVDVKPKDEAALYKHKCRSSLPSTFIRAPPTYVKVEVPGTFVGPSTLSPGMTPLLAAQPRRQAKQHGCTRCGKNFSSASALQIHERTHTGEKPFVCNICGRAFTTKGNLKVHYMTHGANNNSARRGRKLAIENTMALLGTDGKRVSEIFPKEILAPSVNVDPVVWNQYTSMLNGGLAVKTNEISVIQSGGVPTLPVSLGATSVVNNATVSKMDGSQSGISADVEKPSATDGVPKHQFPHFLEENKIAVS
Oligonucleotide	E-score
ACTCGCCG	-0.154
AAAGAAGC	0.0381
CGATGGTC	-0.122
AGATTAGA	0.172
ATAAAACC	0.111

Block 2
Target: CCNA1, cyclin fold, Cln2 fusion (human)
Method: yeast growth competition, sequencing
Matrix: yeast
Setting: weak parent motif
Baseline: not given
Direction: higher = stronger binding
Parent: WEE1 docking peptide (human); HKTFRKLRLFDTP; partner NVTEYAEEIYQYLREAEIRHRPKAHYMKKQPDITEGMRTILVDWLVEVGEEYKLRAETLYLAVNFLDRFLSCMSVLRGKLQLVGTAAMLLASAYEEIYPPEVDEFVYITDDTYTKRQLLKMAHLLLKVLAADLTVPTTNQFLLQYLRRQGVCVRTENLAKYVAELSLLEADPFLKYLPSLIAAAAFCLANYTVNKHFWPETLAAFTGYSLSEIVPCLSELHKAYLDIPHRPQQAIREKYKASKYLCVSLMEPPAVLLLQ
Substitution	normalised enrichment score
H1D	0.496
K6G	0.267
K2C	0.0943
F10P	0.486
H1P	0.14
T3H	0.502

Block 3
Target: RNA binding protein fox-1 homolog 2, RRM domain, GST-SBP tag (RBFOX2, Homo sapiens, UniProt O43251-10, residues 100-194)
Method: RNA Bind-n-Seq
Molecule type: RNA
Matrix: in vitro
Concentration: 365 nM
Setting: natural RNA segment, single round, ends assumed
Baseline: no-protein control
Direction: higher = stronger binding
Constant ends, left off below: GGGAGUUCUACAGUCCGACGAUC … UGGAAUUCUCGGGUGCCAA
Residues (chain): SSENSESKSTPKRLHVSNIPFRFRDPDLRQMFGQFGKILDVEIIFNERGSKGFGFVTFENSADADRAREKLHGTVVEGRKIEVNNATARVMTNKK
Oligonucleotide	RBNS enrichment (R)
CUGCACAUAAGUAAAUGUCUUCACGUCAGUGCGUCCGUGGAAAUUGUGAUCUGUUGUAAUAUCAGUUACAGUGGCAGUAUUGAGAAUAAGAAAUAGUUUAACAGGAAAAA	0.306
AUGGCCACUUGGGCCUGACUCUAAGUUUCUGCCCCAGUGAAACAGACCAUGUGCAAUUCCCAGGUAAGGGUACCUCAGACCCUUCCUGUCCAUGUAGUUCCGACUGCAGC	0.202
UCGCUUUCCUACCCCAAGCAAGUAUUGGUGGCCAUGGCAGCGUGGCGAAGCCAUGCUGGGCGGGAGCUGCACCUGCUGGCGUGGCUCUUCUCACUGAGCUCCUCGCCCCA	0.308
GAAGCAUGAUGACCCACCUGUCUGGGAAGAGAAAACCUCAAGAAGGCAAAGUGCAGUGCGUGUUUGUGGUCAAGAUGAGGGUGUUAAGGGAUGUUGGAGUCUGGUGUAGA	4.19
UUAAAAACUUGGAUUAACCACUCAAUGUCCACUUUCUUUGACUUACAGUAUAACCAUGUAGCCAAUUGUGGCCCACUAAAAUCUACAGAAGUUAAUGUGGGUCACCAUUU	0.496
UAUUGAAAGGACGCCUCAGAAAUGCUUUGUUUUCUUUUACGAUGUAUUCAGAAGCCUUUACUGAUUAAAGUUUUCUUUUAUUUGGGUGGCCGGGAGAGACCCAGGGAGGU	0.884
UGAAACAUGUGCCCCUGCCAAGGCCGGAGACCCACAGCCCUGAAACGAGAAGUGCCCUUAAGGAUCACCCCAGCCCCCACAGCCCUGGAAUAAAUUUCGCAAUUAGUUUC	0.362

Further values, each from its own experiment
Substance	target	assay	system	conditions	scale	quantity	result
PhoQ, residues 284 288 289 292 302 303 TNASYF	PhoP, residues 12 14 15 18 19 DLLYY (Escherichia coli, UniProt P23836)	Sort-seq, refers to: YFP reporter	E. coli	PhoQ-PhoP variant library, added: 10 µM Mg2+	baseline: high Mg2+ state, higher = stronger signaling	fold induction	1.61

For quick reference, copied from above (block 2):
Substitution	normalised enrichment score
K2C	0.0943
F10P	0.486
H1P	0.14
